Measurements pooled from the literature.
Each line is one published result; not all experiments were run side by side.
Target: Serine/threonine-protein kinase WNK3 (WNK3, Homo sapiens, UniProt Q9BYP7)
Chain of UniProt Q9BYP7 (whole entry, looked up): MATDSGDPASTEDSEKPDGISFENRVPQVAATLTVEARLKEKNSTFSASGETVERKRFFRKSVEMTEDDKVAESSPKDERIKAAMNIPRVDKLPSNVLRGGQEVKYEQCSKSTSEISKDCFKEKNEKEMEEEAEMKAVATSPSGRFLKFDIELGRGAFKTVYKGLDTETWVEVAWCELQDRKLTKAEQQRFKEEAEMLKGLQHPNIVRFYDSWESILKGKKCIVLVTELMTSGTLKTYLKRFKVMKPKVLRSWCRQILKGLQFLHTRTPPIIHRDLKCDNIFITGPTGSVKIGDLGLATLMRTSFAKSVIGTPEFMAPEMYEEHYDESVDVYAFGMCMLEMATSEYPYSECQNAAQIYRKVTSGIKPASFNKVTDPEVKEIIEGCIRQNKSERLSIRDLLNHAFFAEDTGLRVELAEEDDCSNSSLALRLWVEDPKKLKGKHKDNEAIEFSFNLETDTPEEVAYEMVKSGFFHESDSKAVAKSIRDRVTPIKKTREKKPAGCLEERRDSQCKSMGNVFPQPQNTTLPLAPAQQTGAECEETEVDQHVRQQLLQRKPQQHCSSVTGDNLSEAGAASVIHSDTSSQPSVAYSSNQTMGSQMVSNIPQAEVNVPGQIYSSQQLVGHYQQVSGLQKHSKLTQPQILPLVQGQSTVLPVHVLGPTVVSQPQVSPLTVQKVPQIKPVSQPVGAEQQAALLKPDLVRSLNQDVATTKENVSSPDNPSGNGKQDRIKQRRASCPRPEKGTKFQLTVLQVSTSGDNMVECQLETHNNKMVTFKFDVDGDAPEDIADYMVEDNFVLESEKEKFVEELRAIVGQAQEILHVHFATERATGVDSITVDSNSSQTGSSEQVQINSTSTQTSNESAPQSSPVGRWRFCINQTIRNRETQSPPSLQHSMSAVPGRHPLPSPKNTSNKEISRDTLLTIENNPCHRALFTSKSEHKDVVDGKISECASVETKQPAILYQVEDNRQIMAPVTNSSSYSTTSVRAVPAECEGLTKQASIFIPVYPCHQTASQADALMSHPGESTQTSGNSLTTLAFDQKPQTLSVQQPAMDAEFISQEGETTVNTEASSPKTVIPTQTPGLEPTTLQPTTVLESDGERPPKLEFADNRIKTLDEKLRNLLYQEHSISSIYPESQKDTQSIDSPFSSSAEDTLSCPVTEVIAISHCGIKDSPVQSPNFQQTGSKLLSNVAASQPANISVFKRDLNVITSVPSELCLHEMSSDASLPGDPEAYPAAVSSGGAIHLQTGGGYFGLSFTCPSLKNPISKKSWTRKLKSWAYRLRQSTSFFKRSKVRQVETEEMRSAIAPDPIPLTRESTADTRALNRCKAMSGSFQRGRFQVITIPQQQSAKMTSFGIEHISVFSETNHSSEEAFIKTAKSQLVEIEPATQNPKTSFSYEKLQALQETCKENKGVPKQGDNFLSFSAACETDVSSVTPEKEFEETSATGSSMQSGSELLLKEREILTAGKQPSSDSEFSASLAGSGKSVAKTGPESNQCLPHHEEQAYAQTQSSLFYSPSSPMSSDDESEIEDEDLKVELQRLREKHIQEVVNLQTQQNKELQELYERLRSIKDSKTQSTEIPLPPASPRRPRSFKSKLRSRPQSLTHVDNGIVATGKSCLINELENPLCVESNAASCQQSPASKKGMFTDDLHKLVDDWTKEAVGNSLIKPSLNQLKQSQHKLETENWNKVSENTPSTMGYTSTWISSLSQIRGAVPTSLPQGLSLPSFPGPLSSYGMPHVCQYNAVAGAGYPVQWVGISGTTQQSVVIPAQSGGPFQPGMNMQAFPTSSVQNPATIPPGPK

CCN1CCN(Cc2ccc(NC(=O)c3ccc(C)c(NC(=O)c4cncc(-c5cnn(C)c5)c4)c3)cc2C(F)(F)F)CC1 — remaining binding (binding, competition with immobilised ligand; 1 µM): 100%
C=CC(=O)N1CCc2ccc(-n3c(=O)ccc4cnc5ccc(-c6cnn(C)c6)cc5c43)cc21 — remaining binding (KINOMEscan; 1 µM; reference: DMSO control): 100%
CN1CC[C@@H](COc2cnc(C#N)cc2-c2ccn3nc(NC(=O)C4CC4)cc3c2)C1 — inhibition (enzyme activity, inhibitor; 1 µM): -2%
O=C(Nc1ccc(Oc2ncnc3[nH]cc(-c4ccccc4)c23)c(F)c1)c1c2n(n(-c3cc(F)ccc3F)c1=O)CCCC2 — inhibition (enzyme activity, inhibitor; 0.5 µM): 22%
COc1cc(Nc2nc(C)cc(-c3cnn4nc(OC)ccc34)n2)cc(C(F)(F)F)c1 — remaining binding (binding, competition with immobilised ligand; 1 µM): 81%
C=CC(=O)N1CCCC(n2c(=O)c3ncccc3n(Cc3ccc(Oc4ccccc4)cc3)c2=O)C1 (stereo not shown) — remaining binding (cell-free assay, competition with immobilised ligand; 1 µM): 84%
NC(=O)C[C@H]1CCc2sc3ncnc(O[C@H]4CC[C@H](N5CCOCC5)CC4)c3c21 — inhibition (enzyme activity, inhibitor; 10 µM): 5%
Cc1nc2c(F)cc(-c3nc(Nc4ccc(CNC(=O)CCCCCCC(=O)NO)cc4)ncc3F)cc2n1C(C)C — inhibition (enzyme activity, inhibitor; 1 µM): 48%
CNC1C[S+]2CC[S+]3CC[S+](C1)[Ru-4]321([N]=C=S)[n]2c3ccc(OC)cc3c3c4c(c5cc(F)c[n+]1c5c32)C(=O)NC4=O (stereo not shown) — remaining binding (KinomeScan; 0.1 µM; reference: untreated): 100%
COc1c(OCCCN2CCOCC2)ccc2c1N=C(NC(=O)c1cnc(N)nc1)N1CCN=C21 — remaining activity (kinase activity, inhibitor; 1 µM; reference: untreated control): 108%
CNC(=O)C1CCN(c2cc(C)c(F)cc2NC(=O)c2ccc(-c3cc(O)ccc3C)c(C)c2)CC1 — remaining binding (binding, competition with immobilised ligand; 1 µM): 45%
Nc1ncc(-c2cc(-c3cnn(CC(F)(F)F)c3)ncc2F)nc1C(=O)NC1CNCC(F)C1 (stereo not shown) — remaining activity (enzyme activity; 1 µM; reference: DMSO control): 105%
CNC(=O)C[C@H](Cc1ccc(C#N)cc1)NC(=O)c1cc(-c2ccc(CN[C@H](C)c3ccc(C)cc3)o2)ccc1Cl — activity vs control (enzyme activity, inhibitor; 1 µM): 109%
